Results pooled from the literature.
Lines come from different studies, so protocols differ. ± gives the spread as reported.
Cell line: NCI-H460

The IC50 of `CC(C)C[C@H](NC(=O)C(CSc1c(F)c(F)c(F)c(F)c1F)NC(=O)[C@@H](NC(=O)CCc1ccccc1)C(C)C)C(=O)[C@@]1(C)CO1` (stereo in doubt) is reported as over 0.6 µM (cell viability).
`CC(=O)O[C@H]1C(=O)[C@@]2(C)[C@H]([C@H](OC(=O)c3ccccc3)[C@]3(O)C[C@H](OC(=O)[C@H](O)[C@@H](NC(=O)c4ccccc4)c4ccccc4)C(C)=C1C3(C)C)[C@]1(OC(C)=O)CO[C@@H]1C[C@@H]2O` has an IC50 of 0.024 µM (cell viability; 10 min exposure, 120 h recovery).
`Cc1ccc(-c2nn(-c3ccccc3)cc2C2CC(c3ccc(Br)cc3)=NN2C(=O)CCC(=O)O)cc1` (stereo not shown) gave an IC50 of 38 µM (cell growth or viability, flow cytometry; 48 h).
For `CC(C)C[C@H](NC(=O)CNC(=O)c1cc(Cl)ccc1Cl)C(=O)[C@@]1(C)CO1`, the IC50 was 9.1 µM (cell growth or viability).
`COc1cccc(/C=C/c2nc3ccccc3[nH]c2=O)c1OC` has an IC50 of over 50 µM (cell growth or viability, MTT; 72 h).
For `O=C(O)Cc1ccccc1Nc1c(Cl)cccc1Cl.O=C(O)Cc1ccccc1Nc1c(Cl)cccc1Cl.c1cnc2c(c1)ccc1cccnc12.c1cnc2c(c1)ccc1cccnc12`, the IC50 was 4.74 ± 0.86 µM (cell viability, MTT; 48 h).
With `CCOc1ccc2cc(C3CC(c4ccc(Br)cc4)=NN3C(=O)CCC(=O)O)c(Cl)nc2c1` (stereo not shown) the IC50 was 30.8 µM (cell growth or viability, flow cytometry; 48 h).
`O=c1c(/C=C/c2ccccc2Br)nc2ccccc2n1Cc1ccccc1` has an IC50 of 21.5 µM (cell growth or viability, MTT; 72 h).
`COc1ccc(-c2nn(-c3ccccc3)cc2C2CC(c3ccc(Br)cc3)=NN2C(=O)CCC(=O)O)cc1` (stereo not shown) gave an IC50 of 31 µM (cell growth or viability, flow cytometry; 48 h).
`CC(C)C[C@H](NC(=O)[C@@H]1CS(=O)(=O)CCCCCCCCCC(=O)N[C@@H](C(C)C)C(=O)N1)C(=O)[C@@]1(C)CO1` gave an IC50 of 0.012 µM (cell growth or viability).
For `O=c1c(/C=C/c2ccccc2F)nc2ccccc2n1Cc1ccccc1`, the IC50 was 16.8 µM (cell growth or viability, MTT; 72 h).
`CC(C)C[C@H](NC(=O)[C@@H](CSc1c(F)c(F)c(F)c(F)c1F)NC(=O)c1cc(Cl)ccc1Cl)C(=O)[C@@]1(C)CO1` has an IC50 of 6.67 µM (cell growth or viability).
For `O=c1c(/C=C/c2ccccc2Cl)nc2ccccc2n1Cc1ccccc1`, the IC50 was 18.1 µM (cell growth or viability, MTT; 72 h).

Repeated from above:
`CC(=O)O[C@H]1C(=O)[C@@]2(C)[C@H]([C@H](OC(=O)c3ccccc3)[C@]3(O)C[C@H](OC(=O)[C@H](O)[C@@H](NC(=O)c4ccccc4)c4ccccc4)C(C)=C1C3(C)C)[C@]1(OC(C)=O)CO[C@@H]1C[C@@H]2O` has an IC50 of 0.024 µM (cell viability; 10 min exposure, 120 h recovery).
For `CC(C)C[C@H](NC(=O)CNC(=O)c1cc(Cl)ccc1Cl)C(=O)[C@@]1(C)CO1`, the IC50 was 9.1 µM (cell growth or viability).
